Published values gathered from unrelated publications.
Parts stem from different laboratories: compare values within a part only. Substitutions count along the parent as printed.

Block 1 — method: universal PBM; molecule type: double-stranded DNA, one strand shown; matrix: in vitro; concentration: 600 nM; reading: higher = stronger binding
Target: Sal-like protein 4, full length isoform A (SALL4, Homo sapiens, UniProt Q9UJQ4, residues 1-1053)
UniProt Q9UJQ4, sequence (whole entry, looked up): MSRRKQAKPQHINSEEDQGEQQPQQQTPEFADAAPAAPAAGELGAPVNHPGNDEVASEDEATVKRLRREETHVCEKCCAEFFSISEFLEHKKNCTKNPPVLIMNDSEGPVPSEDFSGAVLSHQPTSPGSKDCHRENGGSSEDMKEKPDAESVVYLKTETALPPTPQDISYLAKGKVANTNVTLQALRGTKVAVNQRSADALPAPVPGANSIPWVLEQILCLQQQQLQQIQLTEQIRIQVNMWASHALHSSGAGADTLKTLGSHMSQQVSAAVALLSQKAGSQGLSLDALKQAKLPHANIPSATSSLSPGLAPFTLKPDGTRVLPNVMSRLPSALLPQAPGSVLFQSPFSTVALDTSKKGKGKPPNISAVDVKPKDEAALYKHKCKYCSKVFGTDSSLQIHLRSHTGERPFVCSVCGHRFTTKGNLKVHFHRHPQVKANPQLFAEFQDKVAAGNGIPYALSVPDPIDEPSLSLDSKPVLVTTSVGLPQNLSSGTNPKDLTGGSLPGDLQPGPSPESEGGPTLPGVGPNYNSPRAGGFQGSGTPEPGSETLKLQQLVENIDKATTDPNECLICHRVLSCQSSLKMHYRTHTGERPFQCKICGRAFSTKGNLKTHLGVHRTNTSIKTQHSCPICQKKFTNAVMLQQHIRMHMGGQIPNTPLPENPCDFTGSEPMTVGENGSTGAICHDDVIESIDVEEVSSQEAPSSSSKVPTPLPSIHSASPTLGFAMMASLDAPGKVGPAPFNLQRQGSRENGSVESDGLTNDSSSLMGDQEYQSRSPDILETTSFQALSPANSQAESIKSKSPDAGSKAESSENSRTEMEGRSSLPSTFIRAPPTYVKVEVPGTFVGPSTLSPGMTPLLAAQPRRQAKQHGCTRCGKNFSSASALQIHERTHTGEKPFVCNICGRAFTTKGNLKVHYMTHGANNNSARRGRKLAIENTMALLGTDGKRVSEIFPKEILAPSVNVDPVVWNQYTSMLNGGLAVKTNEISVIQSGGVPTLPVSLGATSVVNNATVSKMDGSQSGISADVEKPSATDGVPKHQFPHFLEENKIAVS
Setting: 8-mer, flanks averaged, mean of replicates
The E-score of `AGGATAGA` is reported as 0.125.
`AAGTAGAT` gave an E-score of 0.149.
`GACCTGGA` gave an E-score of -0.167.
The E-score of `ATACCTGA` is reported as 0.196.
`CCCGAGGC` has an E-score of -0.329.
With `CATCAAGA` the E-score was 0.138.
The E-score of `ATAGGTTC` is reported as 0.187.
`ACGCGGGC` gave an E-score of -0.323.
For `AATATGGT`, the E-score was 0.33.
The E-score of `ACGCCGGA` is reported as -0.337.
`CCTTATAC` gave an E-score of 0.168.
With `GGATCGAC` the E-score was -0.226.
For `TATGACCA`, the E-score was 0.22.
The E-score of `GCGGAACC` is reported as -0.206.
With `GCACATGA` the E-score was 0.0334.
For `GGACACCA`, the E-score was -0.115.
`ACTAGCTC` gave an E-score of -0.0303.
The E-score of `TTCACAAA` is reported as 0.129.
With `ACCTTTAA` the E-score was 0.169.
With `TAATCGAA` the E-score was 0.178.

Block 2 — method: RNAcompete; molecule type: RNA; matrix: in vitro; concentration: 20 nM; setting: 7-mer, probes averaged, single round; reference: mean of 7-mers; reading: higher = stronger binding
Target: PABPC1L2, full length, GST fusion (mouse, UniProt A0ABA7IW68)
Construct (chain): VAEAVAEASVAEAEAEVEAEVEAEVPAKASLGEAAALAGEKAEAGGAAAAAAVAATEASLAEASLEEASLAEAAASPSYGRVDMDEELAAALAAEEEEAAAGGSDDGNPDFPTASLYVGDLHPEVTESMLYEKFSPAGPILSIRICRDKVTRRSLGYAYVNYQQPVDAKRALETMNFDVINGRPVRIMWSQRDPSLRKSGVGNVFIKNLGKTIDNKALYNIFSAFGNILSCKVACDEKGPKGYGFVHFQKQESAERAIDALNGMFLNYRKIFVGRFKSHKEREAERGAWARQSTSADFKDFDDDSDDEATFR
With `UCCGAAU` the 7-mer Z-score was -0.151.
For `UCGACUG`, the 7-mer Z-score was -0.2.
For `GUGUAUA`, the 7-mer Z-score was -0.0754.
`CAUGGCA` has a 7-mer Z-score of 0.0569.
The 7-mer Z-score of `AGACCUA` is reported as -0.224.
With `CGAAGUA` the 7-mer Z-score was 0.0587.
The 7-mer Z-score of `GCCAUAG` is reported as -0.157.
With `AACGCGA` the 7-mer Z-score was -0.00108.
`UACAUGG` has a 7-mer Z-score of -0.00652.
`AGCUGAC` gave a 7-mer Z-score of -0.0409.
`GGUCUAC` has a 7-mer Z-score of -0.248.
`AGUCACA` gave a 7-mer Z-score of 0.00798.
`GCCGGAA` has a 7-mer Z-score of 0.177.
The 7-mer Z-score of `CCUCACG` is reported as -0.273.
`ACCAUGU` gave a 7-mer Z-score of -0.0718.
`CCACAAA` gave a 7-mer Z-score of 0.883.
For `CUUCAGG`, the 7-mer Z-score was -0.244.
The 7-mer Z-score of `GCCAUUC` is reported as -0.262.
`CGUUGGG` has a 7-mer Z-score of -0.00108.
`AUCGGAA` has a 7-mer Z-score of 0.149.
With `AGUACGC` the 7-mer Z-score was -0.235.
`UAACGCA` gave a 7-mer Z-score of -0.0283.
With `UAGACCC` the 7-mer Z-score was -0.11.
For `CCGUGAG`, the 7-mer Z-score was -0.34.
With `UAGUGGC` the 7-mer Z-score was 0.0315.

Block 3 — method: RNA Bind-n-Seq; molecule type: RNA; matrix: in vitro; concentration: not given; reference: input RNA pool; reading: higher = stronger binding
Target: RING finger protein unkempt homolog, zinc fingers 1-6, GST-SBP tag (UNK, Homo sapiens, UniProt Q9C0B0, residues 30-357)
Setting: RNA with constant flanks, human and mouse sites, ends assumed
Residues (chain): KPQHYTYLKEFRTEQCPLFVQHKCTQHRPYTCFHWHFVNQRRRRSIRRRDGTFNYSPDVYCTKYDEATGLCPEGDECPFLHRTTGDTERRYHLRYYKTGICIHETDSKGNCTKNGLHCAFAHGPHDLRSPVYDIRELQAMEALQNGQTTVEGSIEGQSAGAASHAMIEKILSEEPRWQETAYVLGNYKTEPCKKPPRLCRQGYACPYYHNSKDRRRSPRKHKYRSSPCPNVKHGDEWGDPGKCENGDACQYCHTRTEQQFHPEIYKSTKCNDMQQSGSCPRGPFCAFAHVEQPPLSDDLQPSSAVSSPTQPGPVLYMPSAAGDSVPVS
With `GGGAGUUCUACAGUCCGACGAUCUCAAAUAAUUAUAACAACAUGAACAACAGAAAUGUGAAAAACUCAAAUUACUGUCUUCCAUCAUAUACCGCUUAUAAGAACUAUGAUUAUUCGGAACCUGGAAGAAACAAUGAACAGCCACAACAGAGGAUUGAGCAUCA` the bound/input enrichment was 0.372 ratio.
`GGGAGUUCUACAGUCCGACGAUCGGACAGAACAGUAAACUAAGCAGACUGUGACCAUUGGCCUCCCACUAGCCAGGAUCAACUUAGCUCUCCUUUUGUGGUCCAUGUGCUGCAUCGUCUGCCAUCAGUGUGCAACCGGCCCCCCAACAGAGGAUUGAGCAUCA` has a bound/input enrichment of 3.61 ratio.
With `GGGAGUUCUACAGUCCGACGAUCUUUGGUGGUCAAAGUAAAUGGGUGUAGGAUGCUACCAGCCUCAGGAGAGGCUUCACCAUGUUUAGCAUAGUUGUCUUCACAAGAAAGAAUUACCCAGUCCAAGAUGUCAUUAGUGCCAAGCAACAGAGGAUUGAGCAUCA` the bound/input enrichment was 1.3 ratio.
`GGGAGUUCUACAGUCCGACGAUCAGUGGCCUACAAAUCCAGAGACACAGCUAUAAAGACCUAGCAAGAUGCAAGGCUGCCAGCAUCUUUGCUCUCCACCUCCUGCCUCUGCUUAUUUCUUGUUCUGGAACUAAAUGAACAGAACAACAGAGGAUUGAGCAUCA` gave a bound/input enrichment of 0.416 ratio.
`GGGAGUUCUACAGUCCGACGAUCUAGCUUGAGCUUUCUUUUUGGCCAUCUUUUAAAACUUUUUUUUUUUUUUUUGAUCUAUAAAAUAGACAAGAGAUAGUUCUACAAUGUCCAAGUCAUUCCAGCAGUCAUCUCUCGGUAGGGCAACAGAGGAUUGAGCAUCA` gave a bound/input enrichment of 1.14 ratio.
With `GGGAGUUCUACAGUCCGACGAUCUCUGGCUCAUAUGAUAAGUCAGUGGCUUUGUAUGACUGCCGAAGUCCAGAUGAAAGCCAUCGAAUGUGGCGAUUCAGUGGGCAGAUAGAGAGAGUGACUUGGAAUCACUUUUCACCUUGUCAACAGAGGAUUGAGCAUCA` the bound/input enrichment was 0.0603 ratio.
`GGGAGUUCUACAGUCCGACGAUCAUUGAUGUUUACGUUAAGAUGAUGUGACCUACACAGAGCAAUUCUAAGAUCUUUCUAAGAUGUUACAUACACAGAGCAAUUCUAAGAUCUUUCUAAUUGCUUGUUUGAGGGAUAUCAUUACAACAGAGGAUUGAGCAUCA` gave a bound/input enrichment of 0.18 ratio.
With `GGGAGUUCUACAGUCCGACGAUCUGUGAAAAUAUAUAAAUAUCACCCAAAAGGCUUUCUGCCCUAUAUUUUUAAAAUACAGAAUAGUUAUAUUUGAAGUAGCCCUGGCCCUAGUUCUAUAGGGCUUGGCUAUUUAAUAUUUUUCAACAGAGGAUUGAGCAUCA` the bound/input enrichment was 1.28 ratio.
The bound/input enrichment of `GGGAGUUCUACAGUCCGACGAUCAAUUUACAGCCUCUUUCUGAAAGGCUGACACUUCUUGCCAUUUUCGUAUCAACUUUUCUCUUUAGCCUGACAUGGCAAUUUAACCAGUUCAUGAUGCUGCUGCAGGCACUGGUGCUGUUCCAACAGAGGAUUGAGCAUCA` is reported as 0.457 ratio.
For `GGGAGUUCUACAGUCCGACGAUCUAUCUGGAACAAUUUGUUGGAGACCAAGAAGCCUGGCAUGAACUUGCAGAACUUUACAUCAAUGAACAUGACUAUGCAAAAGCAGCCUUUUGUUUAGAGGAACUAAUGAUGACUAAUCCACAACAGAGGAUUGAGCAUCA`, the bound/input enrichment was 0.274 ratio.
`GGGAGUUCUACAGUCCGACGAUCAGAAGGAACACCUUCCAAAUUUUGCUUCAAGCUCUGAAAAAAGGAGCACACAGGGGAACCUUAGUCUUGCUUGUGGAUCGAAGCAAAUACUAUCACAGCGAGGAACUGGGACUUUGUGUGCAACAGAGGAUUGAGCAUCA` gave a bound/input enrichment of 0.0568 ratio.

Block 4 — method: DHFR PCA, deep sequencing; matrix: yeast; together with: (+)-ABA 1.4 µM; reference: wild-type fitted maximum; reading: higher = stronger binding
Target: ABI1, truncated, D143A, DHFR fusion (Arabidopsis thaliana)
Setting: methotrexate growth selection, single substitutions
Parent: PYL1, truncated, DHFR fusion (Arabidopsis thaliana); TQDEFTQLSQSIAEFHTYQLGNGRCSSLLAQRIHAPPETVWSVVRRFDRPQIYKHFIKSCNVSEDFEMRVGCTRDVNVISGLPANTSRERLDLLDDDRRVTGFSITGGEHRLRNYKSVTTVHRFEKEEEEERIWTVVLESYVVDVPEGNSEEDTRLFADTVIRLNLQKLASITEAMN
`N77V` — result for “relative binding score”: 65.6%.
Under “relative binding score”, `A158K` is recorded as -18.3%.
For `E151M`, “relative binding score” read 44.5%.
Under “relative binding score”, `R90Q` is recorded as 31.1%.
Under “relative binding score”, `I52P` is recorded as -3.66%.
Under “relative binding score”, `D3L` is recorded as 34.5%.
`S26N` — result for “relative binding score”: -11%.
Under “relative binding score”, `T86F` is recorded as 67.5%.
`T119V`: “relative binding score” 7.88%.
`H55F` — result for “relative binding score”: 53.3%.
`R113L` — result for “relative binding score”: 35.1%.
For `V121T`, “relative binding score” read 1.08%.
Under “relative binding score”, `N165A` is recorded as 8.65%.
Under “relative binding score”, `E109K` is recorded as 20.5%.
`Q31S`: “relative binding score” -0.343%.
`D3N`: “relative binding score” 18.6%.
`D144K`: “relative binding score” -23.5%.
Under “relative binding score”, `Q10A` is recorded as 83.8%.
`S104T` — result for “relative binding score”: 63.9%.
For `N114V`, “relative binding score” read -0.733%.
For `R24V`, “relative binding score” read 45.9%.
Under “relative binding score”, `R46N` is recorded as -32.1%.
For `V118M`, “relative binding score” read 28.1%.
`T106F` — result for “relative binding score”: 56.8%.
`P146C`: “relative binding score” 5.86%.

Block 5 — target: CCNE1, cyclin fold, Cln2 fusion (human); method: yeast growth competition, sequencing; matrix: yeast; setting: weak parent motif; reference: not given; reading: higher = stronger binding
Parent: PKN2 docking peptide (human); VSAVQKLDFSDTM
For `K6R`, “normalised enrichment score” read 0.804.
For `K6G`, “normalised enrichment score” read 0.163.
`V1W`: “normalised enrichment score” 0.593.
Under “normalised enrichment score”, `V1P` is recorded as 0.863.
Under “normalised enrichment score”, `D8V` is recorded as 0.745.
`M13D`: “normalised enrichment score” 1.21.
`D8W` — result for “normalised enrichment score”: 0.761.
For `V1S`, “normalised enrichment score” read 1.07.
`V1H`: “normalised enrichment score” 0.749.
Under “normalised enrichment score”, `S2N` is recorded as 0.649.
For `L7K`, “normalised enrichment score” read 0.14.
For `M13A`, “normalised enrichment score” read 0.545.
`F9C`: “normalised enrichment score” 0.0308.
Under “normalised enrichment score”, `L7D` is recorded as 0.114.
Under “normalised enrichment score”, `T12W` is recorded as 2.13.
`S10E`: “normalised enrichment score” 1.44.
`F9N`: “normalised enrichment score” 0.486.
Under “normalised enrichment score”, `V4G` is recorded as -0.217.
Under “normalised enrichment score”, `V4F` is recorded as 0.431.
Under “normalised enrichment score”, `S10F` is recorded as 0.571.
`K6W` — result for “normalised enrichment score”: 1.57.
Under “normalised enrichment score”, `K6H` is recorded as -0.642.
`K6T` — result for “normalised enrichment score”: 0.881.
For `L7C`, “normalised enrichment score” read -0.271.
For `L7Q`, “normalised enrichment score” read -0.337.
